Experimental data of several laboratories.

SMILES | test | test system | conditions | measurement | result
C[C@@H]1OC(=O)NN=C1c1ccc(-c2ccc(F)cc2)c(C(F)(F)F)c1 | – | patients, phase I trial | oral, 5 mg once daily, any grade TEAE | patients with blood ALP increased | 0%
Nc1nc2cc(-c3ccc4ncc(C(=O)N5CCOCC5)n4c3)ccc2o1 | item: Fatigue | advanced solid tumour patients | dose not given | patients with adverse event | 4%
O=C1Nc2cc3[nH]nc(-c4ccncc4)c3cc2CN1Cc1ccccc1 | CTCAE v4.03 | advanced solid tumour patients | intravenous, 4.8 mg/kg, schedules 1/2 | patients with dizziness | 50%
Cc1cc(OCCOCCC(F)(F)P(=O)(O)O)ccc1CCc1cnc2c(N)nc3cc(CCC(=O)O)ccc3c2c1 | item: vomiting | adults with advanced solid tumours | dose not given, all groups pooled, all grades | patients with non-serious AE | 13.3%
CC(=O)c1c(C)c2cnc(Nc3ccc(C4CCN(CCS(C)(=O)=O)CC4)cn3)nc2n(C2CCCC2)c1=O | – | HR+/HER2- advanced breast cancer patients | oral, 150 mg | patients with any TRAE | 100%
CO[C@H]1C[C@@H]2CC[C@@H](C)[C@@](O)(O2)C(=O)C(=O)N2CCCC[C@H]2C(=O)O[C@H]([C@H](C)C[C@@H]2CC[C@@H](OC(=O)NCCOCCOCCOCCOCCOCCOCCOCCOCCC(=O)N3CCc4cc(Cn5nc(-c6ccc7oc(N)nc7c6)c6c(N)ncnc65)ccc4C3)[C@H](OC)C2)C[C@@H](O)[C@H](C)/C=C(\C)[C@@H](O)[C@@H](OC)C(=O)[C@H](C)C[C@H](C)/C=C/C=C/C=C/1C | item: treatment-emergent AEs | patients with advanced solid tumours | intravenous, dose not given, grade ≥3, all doses | patients with AE | 0%
N[C@@H]1c2ccccc2OC12CCN(c1cnc3c(N4CCCc5ncccc54)n[nH]c3n1)CC2 | – | advanced solid tumour patients | oral, 10 mg once daily | patients with any TEAE | 100%
CN1CC[C@@H](c2c(O)cc(O)c3c(=O)cc(-c4ccc(C(F)(F)F)cc4Cl)oc23)[C@@H]1CO | item: Diarrhea | B-cell malignancies or AML | oral, 100 mg, continuous dosing | patients with adverse event | 12.5%
CCN(CCO)CCCC(C)Nc1ccnc2cc(Cl)ccc12 (centres unmarked) | item: Diarrhea grade 1 | newly diagnosed glioblastoma patients | oral, 400 mg/dose, with radiotherapy and temozolomide | patients with adverse event | 29%
COc1c(OCCCN2CCOCC2)ccc2c1N=C(NC(=O)c1cnc(N)nc1)N1CCN=C21 | item: decreased lymphocyte count | patients with advanced malignancies | intravenous, dose not given, any grade, all cohorts, with: gemcitabine | patients with adverse event | 28%
C=CCNc1c(O)cc2c(O)c1C[C@@H](C)C[C@H](OC)[C@H](O)[C@@H](C)/C=C(\C)[C@H](OC(N)=O)[C@@H](OC)/C=C\C=C(/C)C(=O)N2 | – | unresectable or metastatic STS, GIST, other | intravenous, 400 mg/m^2 | patients with diarrhoea TEAE | 56%

Repeated from above:
SMILES | test | test system | conditions | measurement | result
Cc1cc(OCCOCCC(F)(F)P(=O)(O)O)ccc1CCc1cnc2c(N)nc3cc(CCC(=O)O)ccc3c2c1 | item: vomiting | adults with advanced solid tumours | dose not given, all groups pooled, all grades | patients with non-serious AE | 13.3%
